Published values gathered from unrelated publications.
± gives the spread as reported.
Cell line: Caco-2

The Papp of `C/C=C1/CN2CC[C@@]34c5cc(O)ccc5N(C)[C@]35OC[C@@]4(C(=O)OC)[C@H]1C[C@H]25` is reported as greater than 5 ×10⁻⁶ cm/s (10 µM, 2 h, pH 7.4).
The CC50 of `CN(C)c1ccc(N(Cc2cc(Cl)cs2)C(=O)Cc2cncc3cccc(O)c23)cc1` is reported as 67.6 µM (48 h).
The viability of `C[C@@H]1O[C@@H](OC[C@H]2O[C@@H](Oc3c(-c4ccc(O)c(O)c4)oc4cc(O)cc(O)c4c3=O)[C@H](O)[C@@H](O)[C@@H]2O)[C@H](O)[C@H](O)[C@H]1O` is reported as 103% (CCK-8; 10 µM, 24 h).
`CC[C@H](C)[C@H](NC(=O)[C@@H](N)CC(N)=O)C(=O)N1CCC[C@H]1C(=O)N1CCC[C@H]1C(=O)N[C@@H](CC(C)C)C(=O)N[C@H](C(=O)N[C@@H](CCC(N)=O)C(=O)N[C@H](C(=O)N1CCC[C@H]1C(=O)N[C@H](C(=O)N[C@H](C(=O)N[C@H](C(=O)N1CCC[C@H]1C(=O)N1CCC[C@H]1C(=O)N[C@@H](Cc1ccccc1)C(=O)N[C@@H](CC(C)C)C(=O)N[C@@H](CCC(N)=O)C(=O)N1CCC[C@H]1C(=O)N[C@@H](CCC(=O)O)C(=O)O)C(C)C)C(C)C)C(C)C)[C@@H](C)O)[C@@H](C)O` gave a recovery of 93.4 to 101% (10 µM, time not given, apical side).
With `C[C@]12CC[C@H]3[C@@H](CCC4=CC(=O)CC[C@@]43C)[C@@H]1CC[C@@H]2O` the mass balance was 94.2 ± 3.6% (60 min, basolateral to apical).
The recovery of `O=C(CCCN1CCC2(CC1)C(=O)NCN2c1ccccc1)N(CC1CCCCC1)c1ccccc1` is reported as 69% (Caco-2 permeability; time not given, basolateral to apical).
`CC(C)C[C@H](NC(=O)[C@H](Cc1ccccc1)NC(=O)[C@H](CC(C)C)NC(=O)[C@H](CC(C)C)NC(=O)[C@H](CC(C)C)NC(=O)[C@@H](N)CCCNC(=N)N)C(=O)N[C@@H](CCCNC(=N)N)C(=O)N[C@@H](CCCNC(=N)N)C(=O)N[C@@H](CS)C(=O)NCC(=O)N[C@@H](CCCNC(=N)N)C(=O)O`: cytotoxicity “not toxic” (MTT; concentration not given, 24 h).
With `C/C=C1/CN2CC[C@]34C(=Nc5ccccc53)[C@@H]2C[C@@H]1C4(COC(C)=O)C(=O)OC` (stereo partly shown) the efflux ratio was 1 (relative to: B-A over A-B).
The viability of `NC(=O)CC[C@H](NC(=O)[C@@H]1CCCN1C(=O)[C@H](CCC(N)=O)NC(=O)[C@@H]1CCCN1C(=O)[C@@H](N)Cc1ccc(O)cc1)C(=O)O` is reported as greater than 75% (CCK-8; 400 µM).
Under “apparent permeability A-B”, `CC(C)NCC(O)COc1cccc2ccccc12` (stereo not shown) is recorded as 65 ×10⁻⁶ cm/s (human plasma; pH 7.4, corrected for plasma protein binding).
The viability of `O=c1c(O[C@@H]2O[C@H](CO)[C@H](O)[C@H](O)[C@H]2O)c(-c2ccc(O)c(O)c2)oc2cc(O)cc(O)c12` is reported as 105% (CCK-8; 0.625 µM, 24 h).
For `Cc1ncc2n1-c1ccc(Cl)cc1C(c1ccccc1F)=NC2`, the apparent permeability was 20.7 ×10⁻⁶ cm/s (Caco-2 barrier apical to basolateral).
The Papp of `C[C@@H](NC(=O)[C@@H](C)NC(=O)[C@H](CCCCNC(=O)c1ccc(NC(=O)CCl)cc1)NC(=O)c1ccc(NC(=O)CCl)cc1)C(=O)O` is reported as less than 1 ×10⁻⁶ cm/s (10 µM).
`O=c1cc(-c2ccc(O)cc2)oc2c([C@@H]3O[C@H](CO)[C@@H](O)[C@H](O)[C@H]3O)c(O)cc(O)c12` gave a viability of 105% (CCK-8; 20 µM, 24 h).
For `CC(C)[C@H]1C(=O)N[C@@H](CCCN=C(N)N)C(=O)NCC(=O)N[C@@H](CC(=O)O)C(=O)N[C@H](Cc2ccccc2)C(=O)N1C`, the efflux ratio was 1.4 (20 µM; relative to: Papp B-A over Papp A-B).
The Papp of `C/C=C1/CN2CC[C@]34C(=C(C(=O)OC)[C@H]1C[C@H]23)Nc1ccccc14` is reported as greater than 5 ×10⁻⁶ cm/s (10 µM, 2 h, pH 7.4).
`CC(C)CC(=O)OC[C@H]1O[C@@](C#N)(c2ccc3c(N)ncnn23)[C@H](O)[C@@H]1O` has a recovery of 103% (bidirectional permeability; 9 µM, 120 min; apical to basolateral).
`COc1nc(NCc2cn(-c3ccc(C(=O)Nc4ccc(C(F)(F)F)cc4)cc3)nn2)nc(OC)n1` has a selectivity ratio of 0.44 (MTT; relative to: normal rat colonocytes over Caco-2).
The efflux ratio of `CCC[C@@](N)(CO)CCc1ccc(OCCCCCC(C)C)cc1` is reported as greater than 4.48 (2 µM).

Repeated from above:
`CC[C@H](C)[C@H](NC(=O)[C@@H](N)CC(N)=O)C(=O)N1CCC[C@H]1C(=O)N1CCC[C@H]1C(=O)N[C@@H](CC(C)C)C(=O)N[C@H](C(=O)N[C@@H](CCC(N)=O)C(=O)N[C@H](C(=O)N1CCC[C@H]1C(=O)N[C@H](C(=O)N[C@H](C(=O)N[C@H](C(=O)N1CCC[C@H]1C(=O)N1CCC[C@H]1C(=O)N[C@@H](Cc1ccccc1)C(=O)N[C@@H](CC(C)C)C(=O)N[C@@H](CCC(N)=O)C(=O)N1CCC[C@H]1C(=O)N[C@@H](CCC(=O)O)C(=O)O)C(C)C)C(C)C)C(C)C)[C@@H](C)O)[C@@H](C)O` gave a recovery of 93.4 to 101% (10 µM, time not given, apical side).
With `C[C@]12CC[C@H]3[C@@H](CCC4=CC(=O)CC[C@@]43C)[C@@H]1CC[C@@H]2O` the mass balance was 94.2 ± 3.6% (60 min, basolateral to apical).
